Published values collected from several papers.
Lines come from different studies, so protocols differ.
Target: Serine/threonine-protein kinase PAK 3 (PAK3, Homo sapiens, UniProt O75914)

CN1CCN(Cc2ccc(-c3ccc(CO[C@H]4CCC[C@@H]4NC(=O)c4cc(-c5cnn(C)c5)cnc4N)cc3)cc2)CC1
inhibition (enzyme activity, inhibitor; 0.1 µM): 12%

C=CC(=O)N1Cc2nc(-c3cc(-c4cc(Cl)cnc4Cl)c(F)cc3F)n(-c3ccncn3)c2C1
inhibition (cell-free assay, inhibitor; 1 µM): 12.8%

C=CC(=O)Nc1cccc(-c2cnc3[nH]cc(C(=O)NC(C)(C)C)c3n2)c1
inhibition (enzyme activity, inhibitor; 0.1 µM): 5%

CCn1cc(C(=O)O)c(=O)c2c(N)c(F)c(NC3CCCCC3)cc21
inhibition (kinase activity; 0.1 µM, with: ATP at Km): -0.6%

CNC(=O)C1CCN(c2cc(C)c(F)cc2NC(=O)c2ccc(-c3cc(O)ccc3C)c(C)c2)CC1
remaining binding (binding, competition with immobilised ligand; 1 µM): 98%

NC(=O)C[C@H]1CCc2sc3ncnc(O[C@H]4CC[C@H](N5CCOCC5)CC4)c3c21
inhibition (enzyme activity, inhibitor; 10 µM): 4%

CNC1C[S+]2CC[S+]3CC[S+](C1)[Ru-4]321([N]=C=S)[n]2c3ccc(OC)cc3c3c4c(c5cc(F)c[n+]1c5c32)C(=O)NC4=O (stereo not drawn)
remaining binding (KinomeScan; 0.1 µM; reference: untreated): 100%

C=CC(=O)N1CCCC(n2c(=O)c3ncccc3n(Cc3ccc(Oc4ccccc4)cc3)c2=O)C1 (stereo not drawn)
remaining binding (cell-free assay, competition with immobilised ligand; 1 µM): 100%

Cc1cccc(O[C@H]2CCC[C@@H](C(C)CNCc3ccncc3)C2)c1 (relative stereo)
inhibition (enzyme activity, inhibitor; 1 µM): 1%

COc1c(Cl)cccc1Nc1c(-c2ccncc2C#C[C@@]2(C)CCCN2C(=O)/C=C/CN(C)C)[nH]c2c1C(=O)NCC2
remaining binding (cell-free assay, competition with immobilised ligand; 3 µM): 87%

CNC(=O)C[C@H](Cc1ccc(C#N)cc1)NC(=O)c1cc(-c2ccc(CN[C@H](C)c3ccc(C)cc3)o2)ccc1Cl
activity vs control (enzyme activity, inhibitor; 1 µM): 96%

COc1ccc(C(=O)/C=C/c2ccccc2-c2c[nH]c3ccc(C#N)cc23)c(O)c1
inhibition (enzyme activity, inhibitor; 20 µM): 1%

Cc1cnc2nc1Nc1cccc(c1)COC/C=C/COCc1cc(ccc1OCCN1CCOCC1)N2
remaining binding (binding; 0.1 µM): 93%

COc1cc(Nc2nc(C)cc(-c3cnn4nc(OC)ccc34)n2)cc(C(F)(F)F)c1
remaining activity (inhibitor; 1 µM; reference: control): 85%

Nc1ncc(-c2cc(-c3cnn(CC(F)(F)F)c3)ncc2F)nc1C(=O)NC1CNCC(F)C1 (stereo not drawn)
remaining activity (enzyme activity; 1 µM; reference: DMSO control): 95.4%

Repeated from above:
CNC(=O)C[C@H](Cc1ccc(C#N)cc1)NC(=O)c1cc(-c2ccc(CN[C@H](C)c3ccc(C)cc3)o2)ccc1Cl
activity vs control (enzyme activity, inhibitor; 1 µM): 96%

COc1ccc(C(=O)/C=C/c2ccccc2-c2c[nH]c3ccc(C#N)cc23)c(O)c1
inhibition (enzyme activity, inhibitor; 20 µM): 1%
